Results of several laboratories.
“And” joins repeats or separate records; there may be more than shown. ± marks the error that the study gave.

O=C1CN(c2nc(-c3ccccc3)c3cc(Cl)ccc3n2)c2ccccc2N1 — maximal activity (Mus musculus; gene silencing, high-content imaging; LDR reporter GFP cells; retest run 2): 46%
CCn1c(-c2nonc2N)nc2c(C#CC(C)(C)O)nc(O[C@@H](CN)c3ccccc3)cc21 — selectivity (Trypanosoma brucei; unit not given; relative to: pEC50 T. brucei minus pTC50 HepG2): 1.1
O=C(NCc1cc[nH]n1)c1ccc(C2CCCCC2)cc1 — hepatic clearance (liver microsome stability; mouse liver microsomes; 1 µM): 82 mL/min/kg
C[C@@H](Oc1cc(-n2cnc3ccc(OCC4CCN(C)CC4)cc32)sc1C(N)=O)c1ccccc1C(F)(F)F — selectivity (Trypanosoma brucei; unit not given; relative to: pEC50 T. brucei minus pTC50 HepG2): 2.8
O=c1c2ccccc2nc(COc2ccccc2)n1/N=C/c1c[nH]c2ccccc12 — maximal activity (Mus musculus; gene silencing, high-content imaging; LDR reporter GFP cells; retest run 1): 26%
Oc1ccccc1-c1n[nH]cc1-c1ccnc2ccccc12 — log2 fold change (AKL1 (Candida albicans); kinase binding, MIB/MS competition; Candida albicans lysate; 1 µM; relative to: DMSO): -0.01
Cc1ccccc1OCCn1cnc2cc([N+](=O)[O-])ccc2c1=O — maximal activity (Mus musculus; gene silencing, high-content imaging; LDR reporter GFP cells; retest run 2): 24%
CCn1cc(-c2cc(Cn3ccoc3=N)cc3c2CCN([C@@H](C)c2cc(OC)ccn2)C3=O)c(C(F)(F)F)n1 — EC50 (CAL-27; cell growth, inhibitor; 120 h): 37.2 nM
Cn1cc(-c2ccc(-c3cncc(Cl)c3N3CCC4(CCNC4=O)CC3)cc2)cn1 — fold change in expression (COLO 205; microarray, refers to: c-Myb; concentration not given, 4 h; relative to: untreated cells): -1.37
COc1ccnc(CSC(N)=Nc2ccccc2OC)c1.Cl — maximal activity (Mus musculus; gene silencing, high-content imaging; LDR reporter GFP cells; retest run 2): 161%
O=C(NCCN1CCCC1=O)c1ccc([C@H]2[C@@H](F)[C@@H](F)C[C@@H](F)[C@H]2F)cc1 — hepatic clearance (liver microsome stability; human liver microsomes; 1 µM, without NADPH): 3.9 mL/min/kg
Cl.ON=C1CCc2cc(-c3nc(C4CCNCC4)[nH]c3-c3ccncc3)ccc21 — inhibition (Trypanosoma brucei brucei; cell growth; concentration not given, PKIS HTS): 7.9%
CC(C)n1ncc2c(C(=O)NCC3(C)CNC3)cc(C3CC3)nc21 — plaque reduction (Enterovirus A71; viral replication; Tainan/4643/1998; 900 nM): 31.3% and 41.2%
Nc1cccc2c1C(=O)N(C1CCC(=O)NC1=O)C2=O (stereo not drawn) — surface marker level (RPMI-8226; flow cytometry, refers to: CD29; concentration not given; relative to: comparator compound alone): 34%
CCn1c(-c2nonc2N)nc2cncc(C(=O)N3CC[C@H](N)C3)c21 — inhibition (Trypanosoma brucei brucei; cell growth; concentration not given, PKIS HTS): 93.5%
c1coc(-c2n[nH]cc2-c2ccnc3ccccc23)c1 — log2 fold change (POM1 (Candida albicans); kinase binding, MIB/MS competition; Candida albicans lysate; 1 µM; relative to: DMSO): -0.26
CN1CC[C@H](c2c(O)cc(O)c3c(=O)cc(-c4ccccc4Cl)oc23)[C@H](O)C1 — EC50 (Trypanosoma brucei; cell growth): 177 ± 72 nM
CCOC(=O)c1c(NC(=O)CC2Nc3cc(C)c(C)cc3NC2=O)sc(C)c1C (stereo not drawn) — maximal activity (Mus musculus; gene silencing, high-content imaging; LDR reporter GFP cells; retest run 2): 104%
CC(C)NCC(O)c1ccc(O)c(O)c1 (stereo not drawn) — sarcomere length (ventricular cardiomyocytes, C57BL/6 mouse; dose not given, 0.78 s): 1.71 µm
CS(=O)(=O)CCNCc1ccc(-c2ccc3ncnc(Nc4ccc(OCc5cccc(C(F)(F)F)c5)cc4)c3c2)o1 — selectivity (Trypanosoma brucei; unit not given; relative to: pEC50 T. brucei minus pTC50 HepG2): 1.3
CC(C)C[C@@H](C=O)NC(=O)[C@H](CC(C)C)NC(=O)[C@H](CC(C)C)NC(=O)OCc1ccccc1 — AC50 (Mus musculus; gene silencing, high-content imaging; LDR reporter GFP cells; retest run 1): 10000 nM
O=C(Nc1ccc(Oc2ccc3nc(NC(=O)c4ccco4)[nH]c3c2)cc1)Nc1cc(C(F)(F)F)ccc1F — selectivity (Trypanosoma brucei; unit not given; relative to: pEC50 T. brucei minus pTC50 HepG2): 0.6
COc1ccc(OC)c(Nc2nc3nonc3nc2N2CCCC(C)C2)c1 (stereo not drawn) — maximal activity (Mus musculus; gene silencing, high-content imaging; LDR reporter GFP cells; retest run 2): 49%
CCn1cc(-c2cc(Cn3ccnc3)cc3c2CCN([C@H](c2cc(OC)ccn2)C2CC2)C3=O)c(C(F)(F)F)n1 — EC50 (CAL-27; cell growth, inhibitor; 120 h): 39.4 nM

Repeated from above:
CCOC(=O)c1c(NC(=O)CC2Nc3cc(C)c(C)cc3NC2=O)sc(C)c1C (stereo not drawn) — maximal activity (Mus musculus; gene silencing, high-content imaging; LDR reporter GFP cells; retest run 2): 104%
CCn1c(-c2nonc2N)nc2cncc(C(=O)N3CC[C@H](N)C3)c21 — inhibition (Trypanosoma brucei brucei; cell growth; concentration not given, PKIS HTS): 93.5%
O=C(NCc1cc[nH]n1)c1ccc(C2CCCCC2)cc1 — hepatic clearance (liver microsome stability; mouse liver microsomes; 1 µM): 82 mL/min/kg
Nc1cccc2c1C(=O)N(C1CCC(=O)NC1=O)C2=O (stereo not drawn) — surface marker level (RPMI-8226; flow cytometry, refers to: CD29; concentration not given; relative to: comparator compound alone): 34%
